Results of several laboratories.
Compare with care: the assays were run in different laboratories. “And” joins repeats or separate records; there may be more than shown.
Cell line: MDA-MB-435

SMILES = Cc1n[nH]c2nc(-c3ccc(Cl)cc3)c3c(NC(=O)c4ccccc4)nnc-3n12; test = SRB; setting = 10 µM, NCI60 single-dose screen; scale = baseline: untreated; quantity = cell growth; value = 104%
SMILES = S=C([S][Au-][P+](CCCCCC[P+]([Au-][S]C(=S)n1cccn1)(c1ccccc1)c1ccccc1)(c1ccccc1)c1ccccc1)n1cccn1; test = cell growth, NCI-60 screen; setting = breast cancer; quantity = log10 TGI; value = > -4
SMILES = C#C[C@@]1(O)[C@@H](CO)O[C@@H](n2cc(F)c3c(N)ncnc32)[C@@H]1O; test = SRB; setting = NCI-60 screen; quantity = TGI; value = 3.26 µM
SMILES = Cc1cc(=O)[nH]n1-c1nc(-c2ccc(Cl)cc2)c2c(NC(=O)c3ccccc3)nnc-2[nH]1; test = SRB; setting = 10 µM, NCI60 single-dose screen; scale = baseline: untreated; quantity = cell growth; value = 99%
SMILES = COc1ccc(OC)c(-c2nc3ccc(-c4nc5ccc(N6CCN(C)CC6)cc5[nH]4)cc3[nH]2)c1; test = SRB; setting = 10 µM, 48 h; quantity = growth percent; value = 99%
SMILES = Cn1cncc1C1=CN(c2ncnc3[nH]cnc23)CCS1; setting = melanoma cell line; quantity = TGI; value = > 200 µM
SMILES = O=C(Nc1nnc2n3c(nc(-c4ccc(Cl)cc4)c1-2)SCC3=O)c1ccccc1; test = SRB; setting = 10 µM, NCI60 single-dose screen; scale = baseline: untreated; quantity = cell growth; value = 101%
SMILES = CCCCN1CCN(c2ccc3[nH]c(-c4ccc5[nH]c(-c6cc(OC)c(OC)c(OC)c6)nc5c4)nc3c2)CC1; test = SRB; setting = 10 µM, 48 h; quantity = growth percent; value = 53.5%
SMILES = CC(=O)O[C@H]1C(=O)[C@@]2(C)[C@H]([C@H](OC(=O)c3ccccc3)[C@]3(O)C[C@H](OC(=O)[C@H](O)[C@@H](NC(=O)c4ccccc4)c4ccccc4)C(C)=C1C3(C)C)[C@]1(OC(C)=O)CO[C@@H]1C[C@@H]2O; test = sulforhodamine B; test system = Melanoma cancer; setting = NCI60 screen; quantity = TGI; value = 0.02 µM
SMILES = CCCCN1CCN(c2ccc3[nH]c(-c4ccc5[nH]c(-c6ccc(OCC)c(OCC)c6)nc5c4)nc3c2)CC1; test = SRB; setting = 10 µM, 48 h; quantity = growth percent; value = -41.2%
SMILES = C#C[C@@]1(O)[C@@H](CO)O[C@@H](n2cc(I)c3c(N)ncnc32)[C@@H]1O; test = SRB; setting = NCI-60 screen; quantity = TGI; value = 14 µM and 11.7 µM
SMILES = CCCN1CCN(c2ccc3[nH]c(-c4ccc5[nH]c(-c6ccc(OCC)c(OCC)c6)nc5c4)nc3c2)CC1; test = SRB; setting = 10 µM, 48 h; quantity = growth percent; value = -88.2%
SMILES = Cc1cc(C)n(C(=S)[S][Au][PH](CCCCCC[PH]([Au][S]C(=S)n2nc(C)cc2C)(c2ccccc2)c2ccccc2)(c2ccccc2)c2ccccc2)n1; test = cell growth, NCI-60 screen; setting = breast cancer; quantity = log10 TGI; value = > -4
SMILES = NNc1nc(-c2ccc(Cl)cc2)c2c(NC(=O)c3ccccc3)nnc-2[nH]1; test = SRB; setting = 10 µM, NCI60 single-dose screen; scale = baseline: untreated; quantity = cell growth; value = 103%
SMILES = CCCCN1CCN(c2ccc3nc(-c4ccc5nc(-c6cc(OC)ccc6OC)[nH]c5c4)[nH]c3c2)CC1; test = SRB; setting = 10 µM, 48 h; quantity = growth percent; value = 101%
SMILES = Cc1cc(C)n(-c2nc(-c3ccc(Cl)cc3)c3c(NC(=O)c4ccccc4)nnc-3[nH]2)n1; test = SRB; setting = 10 µM, NCI60 single-dose screen; scale = baseline: untreated; quantity = cell growth; value = 60%
SMILES = CN1CCN(c2ccc3[nH]c(-c4ccc5[nH]c(-c6ccc(C(F)(F)F)cc6)nc5c4)nc3c2)CC1; test = SRB; setting = 10 µM, 48 h; quantity = growth percent; value = 49.8%
SMILES = O=C(Nc1nnc2[nH]c(=S)[nH]c(-c3ccc(Cl)cc3)c1-2)c1ccccc1; test = SRB; setting = 10 µM, NCI60 single-dose screen; scale = baseline: untreated; quantity = cell growth; value = 100%
SMILES = CCN(CC)c1ccc(C=NNC(=O)CSc2nc3ccccc3c(=O)n2Cc2ccc(S(N)(=O)=O)cc2)c(O)c1; test = NCI five-dose screen; quantity = TGI; value = > 100 µM
